Experimental data pooled from the literature.
Compare with care: the assays were run in different laboratories. “And” joins repeats or separate records; there may be more than shown. ± gives the spread as reported.
T1: ssDNA, aptamer; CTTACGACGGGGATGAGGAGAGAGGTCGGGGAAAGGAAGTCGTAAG
Sequence of UniProt Q16853 (whole entry, looked up): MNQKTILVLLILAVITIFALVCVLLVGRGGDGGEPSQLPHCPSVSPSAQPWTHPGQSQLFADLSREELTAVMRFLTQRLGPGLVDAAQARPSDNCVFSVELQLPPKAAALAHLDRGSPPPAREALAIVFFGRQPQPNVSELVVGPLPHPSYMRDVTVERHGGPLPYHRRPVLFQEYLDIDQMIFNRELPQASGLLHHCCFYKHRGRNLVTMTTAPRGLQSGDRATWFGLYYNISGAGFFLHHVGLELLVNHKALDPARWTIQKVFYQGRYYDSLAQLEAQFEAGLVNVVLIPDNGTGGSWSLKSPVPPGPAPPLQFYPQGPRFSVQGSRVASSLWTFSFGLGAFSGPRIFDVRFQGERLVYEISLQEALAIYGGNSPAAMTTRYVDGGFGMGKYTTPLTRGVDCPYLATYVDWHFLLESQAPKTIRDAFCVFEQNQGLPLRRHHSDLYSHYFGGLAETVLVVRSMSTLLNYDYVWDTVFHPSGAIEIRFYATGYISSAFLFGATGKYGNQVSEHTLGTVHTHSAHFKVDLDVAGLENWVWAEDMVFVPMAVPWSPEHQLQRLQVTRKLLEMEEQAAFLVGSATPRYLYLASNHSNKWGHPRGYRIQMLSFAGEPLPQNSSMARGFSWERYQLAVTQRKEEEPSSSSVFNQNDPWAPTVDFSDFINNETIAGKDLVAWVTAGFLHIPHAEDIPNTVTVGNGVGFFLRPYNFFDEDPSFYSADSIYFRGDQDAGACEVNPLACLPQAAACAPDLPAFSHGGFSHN
Sequence of UniProt Q16774 (whole entry, looked up): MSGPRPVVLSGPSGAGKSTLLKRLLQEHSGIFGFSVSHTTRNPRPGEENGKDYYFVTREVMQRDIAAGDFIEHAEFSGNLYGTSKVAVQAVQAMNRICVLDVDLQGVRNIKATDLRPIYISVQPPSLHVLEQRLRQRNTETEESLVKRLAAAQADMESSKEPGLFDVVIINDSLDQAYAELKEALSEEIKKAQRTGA
Sequence of UniProt Q13523 (whole entry, looked up): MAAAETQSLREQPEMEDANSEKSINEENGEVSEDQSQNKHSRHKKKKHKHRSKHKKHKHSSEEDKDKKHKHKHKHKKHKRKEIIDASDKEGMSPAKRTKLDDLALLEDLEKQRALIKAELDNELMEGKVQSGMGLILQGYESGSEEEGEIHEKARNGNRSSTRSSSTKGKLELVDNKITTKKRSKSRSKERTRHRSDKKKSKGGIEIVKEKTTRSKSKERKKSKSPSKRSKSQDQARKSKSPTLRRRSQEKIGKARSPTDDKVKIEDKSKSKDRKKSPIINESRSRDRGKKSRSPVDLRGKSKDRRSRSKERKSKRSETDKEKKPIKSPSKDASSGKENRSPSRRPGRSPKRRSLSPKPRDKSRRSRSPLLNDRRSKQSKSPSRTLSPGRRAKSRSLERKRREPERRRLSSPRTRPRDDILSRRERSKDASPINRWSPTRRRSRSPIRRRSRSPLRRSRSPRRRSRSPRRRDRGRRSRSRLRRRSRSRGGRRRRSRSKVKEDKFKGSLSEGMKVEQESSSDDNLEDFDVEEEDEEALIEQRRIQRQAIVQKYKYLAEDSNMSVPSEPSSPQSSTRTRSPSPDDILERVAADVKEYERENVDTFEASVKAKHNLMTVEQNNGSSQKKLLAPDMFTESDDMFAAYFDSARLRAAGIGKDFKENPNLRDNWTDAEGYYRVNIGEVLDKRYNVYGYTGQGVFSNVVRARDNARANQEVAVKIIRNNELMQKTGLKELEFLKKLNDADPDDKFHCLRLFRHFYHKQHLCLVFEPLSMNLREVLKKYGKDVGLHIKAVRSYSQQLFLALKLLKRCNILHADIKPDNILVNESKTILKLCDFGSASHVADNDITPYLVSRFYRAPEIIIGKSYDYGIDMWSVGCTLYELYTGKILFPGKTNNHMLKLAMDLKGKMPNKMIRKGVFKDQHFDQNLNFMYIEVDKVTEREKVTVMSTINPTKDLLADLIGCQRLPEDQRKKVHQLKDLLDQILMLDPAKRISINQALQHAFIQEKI
Sequence of UniProt P11388 (whole entry, looked up): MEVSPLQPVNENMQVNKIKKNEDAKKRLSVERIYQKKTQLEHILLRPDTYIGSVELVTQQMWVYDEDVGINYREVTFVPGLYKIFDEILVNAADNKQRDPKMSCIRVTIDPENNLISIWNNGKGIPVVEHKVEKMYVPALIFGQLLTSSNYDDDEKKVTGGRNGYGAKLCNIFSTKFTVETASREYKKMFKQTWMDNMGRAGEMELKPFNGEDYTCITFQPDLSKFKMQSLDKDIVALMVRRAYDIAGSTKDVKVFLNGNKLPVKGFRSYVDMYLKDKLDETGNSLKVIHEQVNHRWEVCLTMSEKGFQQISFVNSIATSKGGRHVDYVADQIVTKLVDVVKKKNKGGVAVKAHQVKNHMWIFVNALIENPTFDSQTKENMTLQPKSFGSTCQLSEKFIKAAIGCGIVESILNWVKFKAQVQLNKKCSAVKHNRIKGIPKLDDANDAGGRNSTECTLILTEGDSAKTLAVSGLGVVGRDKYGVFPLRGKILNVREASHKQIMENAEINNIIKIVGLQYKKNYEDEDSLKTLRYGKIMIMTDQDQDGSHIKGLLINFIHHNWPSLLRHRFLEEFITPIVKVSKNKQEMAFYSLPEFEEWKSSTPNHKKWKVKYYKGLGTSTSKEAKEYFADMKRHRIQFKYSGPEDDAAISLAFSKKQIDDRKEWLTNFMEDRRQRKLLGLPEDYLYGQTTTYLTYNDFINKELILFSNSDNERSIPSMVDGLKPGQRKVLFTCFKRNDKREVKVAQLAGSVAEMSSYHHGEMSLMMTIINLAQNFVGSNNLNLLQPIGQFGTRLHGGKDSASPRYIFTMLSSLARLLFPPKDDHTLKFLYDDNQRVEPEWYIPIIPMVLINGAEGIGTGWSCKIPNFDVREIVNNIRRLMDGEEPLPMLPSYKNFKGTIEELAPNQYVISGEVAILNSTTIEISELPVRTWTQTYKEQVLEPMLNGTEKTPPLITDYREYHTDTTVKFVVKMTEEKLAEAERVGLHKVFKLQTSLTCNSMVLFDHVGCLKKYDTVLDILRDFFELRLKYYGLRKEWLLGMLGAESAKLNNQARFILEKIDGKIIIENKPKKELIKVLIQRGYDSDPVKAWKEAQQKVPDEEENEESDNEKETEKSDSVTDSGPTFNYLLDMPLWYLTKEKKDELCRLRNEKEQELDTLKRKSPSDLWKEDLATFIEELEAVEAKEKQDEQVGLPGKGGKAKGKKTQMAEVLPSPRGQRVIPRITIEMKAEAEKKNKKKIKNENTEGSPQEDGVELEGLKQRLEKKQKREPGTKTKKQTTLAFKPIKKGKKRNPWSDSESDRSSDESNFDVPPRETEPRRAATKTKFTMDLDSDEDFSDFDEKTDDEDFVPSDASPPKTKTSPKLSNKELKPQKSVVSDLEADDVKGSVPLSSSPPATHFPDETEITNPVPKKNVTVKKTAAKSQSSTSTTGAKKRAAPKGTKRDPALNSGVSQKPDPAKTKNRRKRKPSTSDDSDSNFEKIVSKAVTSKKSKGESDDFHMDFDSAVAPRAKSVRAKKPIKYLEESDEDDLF
Sequence of UniProt P47898 (whole entry, looked up): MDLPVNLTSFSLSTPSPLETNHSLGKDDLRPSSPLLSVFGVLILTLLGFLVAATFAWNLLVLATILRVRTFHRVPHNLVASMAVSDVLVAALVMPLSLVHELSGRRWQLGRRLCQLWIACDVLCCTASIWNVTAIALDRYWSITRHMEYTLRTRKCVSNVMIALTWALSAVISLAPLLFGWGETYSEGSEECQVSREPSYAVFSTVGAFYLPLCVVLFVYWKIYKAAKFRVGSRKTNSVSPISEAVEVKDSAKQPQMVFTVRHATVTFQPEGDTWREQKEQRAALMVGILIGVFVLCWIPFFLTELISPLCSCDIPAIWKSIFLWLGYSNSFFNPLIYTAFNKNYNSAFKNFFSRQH
Sequence of UniProt P19440 (whole entry, looked up): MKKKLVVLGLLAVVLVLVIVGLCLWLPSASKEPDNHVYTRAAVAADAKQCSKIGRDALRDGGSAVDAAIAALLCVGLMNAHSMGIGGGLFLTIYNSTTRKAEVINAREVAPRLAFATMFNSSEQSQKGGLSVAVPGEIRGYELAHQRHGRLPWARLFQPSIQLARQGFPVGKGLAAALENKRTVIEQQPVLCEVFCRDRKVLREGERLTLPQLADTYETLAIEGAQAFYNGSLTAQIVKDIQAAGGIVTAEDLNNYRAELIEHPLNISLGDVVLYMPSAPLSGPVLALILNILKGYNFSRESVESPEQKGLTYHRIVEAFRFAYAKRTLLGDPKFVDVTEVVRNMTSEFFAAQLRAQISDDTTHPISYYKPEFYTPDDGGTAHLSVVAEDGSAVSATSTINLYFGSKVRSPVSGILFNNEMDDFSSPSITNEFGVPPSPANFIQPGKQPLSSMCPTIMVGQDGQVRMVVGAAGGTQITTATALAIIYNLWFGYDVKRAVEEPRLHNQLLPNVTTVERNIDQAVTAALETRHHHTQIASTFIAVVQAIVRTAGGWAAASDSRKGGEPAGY
Sequence of UniProt Q92207 (whole entry, looked up): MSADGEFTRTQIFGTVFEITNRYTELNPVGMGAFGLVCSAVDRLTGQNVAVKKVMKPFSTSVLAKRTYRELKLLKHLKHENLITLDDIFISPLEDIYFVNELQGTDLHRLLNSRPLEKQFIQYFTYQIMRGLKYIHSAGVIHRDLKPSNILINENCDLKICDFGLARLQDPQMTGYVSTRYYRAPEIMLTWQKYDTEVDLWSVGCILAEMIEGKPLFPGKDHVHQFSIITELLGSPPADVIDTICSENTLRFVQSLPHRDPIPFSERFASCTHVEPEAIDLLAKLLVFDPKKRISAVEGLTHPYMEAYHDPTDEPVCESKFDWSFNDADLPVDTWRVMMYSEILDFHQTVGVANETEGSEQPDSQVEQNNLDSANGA

Compound = NCc1ccccc1; target = AOC3 (Homo sapiens, UniProt Q16853); assay = substrate turnover, SSAO/VAP-1 oxidation; setting = concentration not given, unit not given; how to read = relative to: DMSO control; measurement = enzyme activity; value = 27.4 and 31.6 and 27.9 and 30 and 33.6 and 31.5 and 28.4 and 32.6
Compound = O=C1c2ccccc2CCCN1CCCCN1CCN(c2ccccn2)CC1; target = HTR5A (Homo sapiens, UniProt P47898); assay = radioligand binding; setting = concentration not given, together with: [3H]LSD; measurement = inhibition; value = 58.8%
Compound = O=C(/C=C/c1cccc(F)c1)Nc1cc(-c2ccnc(N3CCC(O)CC3)c2)ccn1; target = Nuclear receptor subfamily 4 group A member 1 (NR4A1, Homo sapiens, UniProt P22736); assay = SPR; setting = 10.0 µM; measurement = binding response; value = 43.5 RU
Compound = O=C(O)c1ccc(Nc2ncc3c(n2)-c2ccc(Cl)cc2C(c2c(F)cccc2F)=NC3)cc1; target = human ZAP-70(h); assay = kinase activity; setting = 1 µM; measurement = remaining activity; value = 96%
Compound = N#Cc1ccc2c(-c3ccncc3)c(-c3ccc(F)cc3)nn2c1; target = Mitogen-activated protein kinase HOG1 (HOG1, Candida albicans, UniProt Q92207); assay = MIB/MS competition binding; test system = Candida albicans cell lysate; setting = 10 µM; how to read = relative to: DMSO, lower = stronger binding; measurement = log2 fold change; value = -2.92
Compound = O=S(=O)(O)O; target = GUK1 (Homo sapiens, UniProt Q16774); assay = enzyme activity, NADH-coupled; setting = 5 mM, together with: ATP 1000 µM; measurement = reaction velocity; value = 0.108 µM/s and 0.104 µM/s and 0.0813 µM/s
Compound = COc1cc(CNC(=O)CCCC/C=C/C(C)C)ccc1O; target = TRPV1 (Homo sapiens, UniProt Q8NER1); assay = channel gating, single-channel inside-out patch; setting = 100 nM, component 2 of four; measurement = open time constant; value = 5.61 ms
Compound = CC[C@@H]1[C@H](F)C(=O)N[C@@H]1COc1nccc2cc(C(N)=O)c(OC)cc12; target = PRPF4B (Homo sapiens, UniProt Q13523); assay = ATP-site probe binding, ActivX profiling; test system = THP-1 cell lysate; setting = 0.2 mM, Lys2 site; measurement = inhibition; value = 28.3%
Compound = O=c1nc(SCc2ccc(C(F)(F)F)cc2)nc(SCc2csc3ccc(Cl)cc23)[nH]1; target = TOP2A (Homo sapiens, UniProt P11388); assay = decatenation; setting = 0.12 µM, replicate 2; measurement = decatenated DNA; value = 0%
Compound = COc1ccc(Cc2nnc(NS(=O)(=O)c3cccc(Cl)c3)s2)cc1; target = Glutathione hydrolase 1 proenzyme, without transmembrane domain (Homo sapiens, UniProt P19440); assay = GSH hydrolysis, uncompetitive inhibitor; setting = 37 °C, binds gamma-glutamyl enzyme, together with: GSH 5-20 µM; measurement = Kii; value = 67 ± 6 µM
Compound = Nc1ncnc2c1ncn2[C@@H]1O[C@H](COP(=O)(O)O)[C@@H](O)[C@H]1O; target = T1, ssDNA, aptamer; assay = ITC; measurement = Kd; value = 105 µM
Compound = CCCC[C@@H]1NC(=O)[C@H](Cc2ccc(O)cc2)NC(=O)[C@@H]2CCCN2C(=O)[C@H](CCC(=O)O)NC(=O)[C@H](C)NC(=O)[C@H](Cc2ccccc2)NC(=O)[C@@H]2CSCCC(=O)N3CN(CN(C3)C(=O)CCSC[C@H](NC(C)=O)C(=O)N[C@@H](CC(C)(C)C)C(=O)N3CCC[C@H]3C(=O)N[C@@H](CCC(=O)O)C(=O)N[C@H](CCCCNC(=O)CCc3cn(CCOCCOCCOCCOCCOCCC(=O)N[C@H]4CSCCC(=O)N5CN6CN(C5)C(=O)CCSC[C@H](NC(=O)[C@@H](CC(=O)O)NC(=O)[C@H](Cc5cccc7ccccc57)NC(=O)[C@@H]5CCCN5C4=O)C(=O)N[C@@H](CCSC)C(=O)N[C@@H](CCCCNC(=N)N)C(=O)N[C@@H](CC(=O)O)C(=O)N[C@@H](Cc4c[nH]c5ccccc45)C(=O)N[C@@H](CO)C(=O)N[C@@H]([C@@H](C)O)C(=O)N4CCC[C@H]4C(=O)N4C[C@H](O)C[C@H]4C(=O)N[C@@H](Cc4c[nH]c5ccccc45)C(=O)N[C@H](C(N)=O)CSCCC6=O)nn3)C(=O)N3CCC[C@H]3C(=O)N[C@@H](Cc3ccc(O)cc3)C(=O)N2)C(=O)CCSC[C@@H](C(N)=O)NC1=O; target = Tumor necrosis factor receptor superfamily member 9/Nectin-4 (Homo sapiens, UniProt Q07011+Q96NY8); assay = reporter gene, agonist; test system = HT-1376 coculture with reporter cells; how to read = relative to: background; measurement = Emax; value = 2.2 fold

Some of these lines once more:
Compound = N#Cc1ccc2c(-c3ccncc3)c(-c3ccc(F)cc3)nn2c1; target = Mitogen-activated protein kinase HOG1 (HOG1, Candida albicans, UniProt Q92207); assay = MIB/MS competition binding; test system = Candida albicans cell lysate; setting = 10 µM; how to read = relative to: DMSO, lower = stronger binding; measurement = log2 fold change; value = -2.92
